Measurements of several laboratories.
Each line is one published result; not all experiments were run side by side. ± marks the error that the study gave.
Cell line: A498

With `CCCC(CCC)C(=O)[O][Pt]1([OH])[O]C(=O)C(=O)[O]1.NC1CCCCC1N` the IC50 was 21.1 ± 3.07 µM (cell growth; 72 h).
The growth percent of `COc1cc(CNC(=O)C[C@H](C)CCC=C(C)C)ccc1OCc1cn(-c2cccc(Cl)c2)nn1` is reported as 142% (SRB; 10 µM, 48 h).
The IC50 of `CC(=O)[O][Pt]([Cl])([Cl])[O]C(C)=O.N.N` is reported as 20.1 ± 0.85 µM (cell growth; 72 h).
The growth percent of `COc1cc(CNC(=O)C[C@H](C)CCC=C(C)C)ccc1OCc1cn(-c2ccccc2)nn1` is reported as 92.2% (SRB; 10 µM, 48 h).
`COc1ccc2c(c1)/C(=N\Nc1nnc3n1N=C(c1ccccc1)CS3)C(=O)N2` gave an inhibition of 23% (cell growth or viability, SRB; 10 µM).
`COc1cc(CNC(=O)C[C@H](C)CCC=C(C)C)ccc1OCc1cn(-c2ccc(Cl)cc2Cl)nn1` gave a growth percent of 59% (SRB; 10 µM, 48 h).
For `Nc1ncnc2c1ncn2CCN1C(=O)/C(=N\N=C2/NC(=O)CS2)c2cc(F)ccc21`, the IC50 was 191 µM (cell growth or viability, SRB; 72 h).
With `CC(=O)OC[C@H]1O[C@@H](Sc2sc(C(=O)c3ccc(C)cc3)c(N)c2-c2nc3ccccc3s2)[C@H](OC(C)=O)[C@@H](OC(C)=O)[C@H]1OC(C)=O` the growth was 53.4% (SRB; 10 µM, 48 h; reference: untreated).
`COc1cc(CNC(=O)C[C@H](C)CCC=C(C)C)ccc1OCc1cn(-c2ccc(F)cc2)nn1` has a growth percent of 136% (SRB; 10 µM, 48 h).
The IC50 of `N.N.O=C(CCCc1ccccc1)[O][Pt]([Cl])([Cl])[O]C(=O)CCCc1ccccc1` is reported as 0.43 ± 0.02 µM (cell growth; 72 h).
The IC50 of `O=C(O)c1ccc([P+]([Au-][Cl])(c2ccccc2)c2ccccc2)cc1` is reported as 21 µM (cell viability, XTT; 72 h).
`CC(=C(c1ccc(O)cc1)c1ccc(Cl)cc1)c1ccc(Cl)cc1` gave a GI50 of 3.12 µM (cell growth or viability).
With `CC/C=C\C/C=C\C/C=C\C/C=C\C/C=C\C/C=C\CCC(=O)Nc1ccn(C2OC(CO)C(O)C2(F)F)c(=O)n1` (stereo not shown) the GI50 was 0.0855 µM (cell growth or viability, SRB).
For `O=C1Nc2ccccc2/C1=N\Nc1nnc2n1N=C(c1ccc(Cl)cc1)CS2`, the inhibition was 18% (cell growth or viability, SRB; 10 µM).
The IC50 of `CCCC(CCC)C(=O)[O][Pt]1([O]C(=O)C(CCC)CCC)[O]C(=O)C(=O)[O]1.NC1CCCCC1N` is reported as 5.21 ± 1.1 µM (cell growth; 72 h).
`COc1cc(CNC(=O)C[C@H](C)CCC=C(C)C)ccc1OCc1cn(-c2ccccc2Cl)nn1` gave a growth percent of 107% (SRB; 10 µM, 48 h).
`O=C([O][Ti+2][O]C(=O)c1ccc([P+]([Au-][Cl])(c2ccccc2)c2ccccc2)cc1)c1ccc([P+]([Au-][Cl])(c2ccccc2)c2ccccc2)cc1.c1cc[cH-]c1.c1cc[cH-]c1` gave an IC50 of 28 µM (cell viability, XTT; 24 h).
For `COc1cc(CNC(=O)C[C@H](C)CCC=C(C)C)ccc1OCc1cn(-c2ccc(Cl)c(Cl)c2)nn1`, the growth percent was 80% (SRB; 10 µM, 48 h).
The IC50 of `O=C(O)CCCc1ccccc1` is reported as 925 µM (cell growth or viability; 72 h).
